Assay results collected from several papers.
Compare with care: the assays were run in different laboratories. ± marks the error that the study gave.

Substance	assay	system	conditions	IC50
COc1cccc(NC(=O)c2cc(-c3ccc(CC4C(=O)N(c5cccc(C(=O)O)c5)N=C4C)o3)ccc2Cl)c1 (centres unmarked)	non-homologous end joining, inhibitor	HEK293 cell-free extract	with: linearized plasmid	~15 µM
Oc1cc(O)cc(/C=C/c2ccc(O)c(O)c2)c1	superoxide scavenging	PMS-NADH system	pH 10.0	9 ± 2 µM
NC[C@H]1O[C@H](O[C@H]2[C@H](O)[C@@H](O[C@H]3O[C@H](CO)[C@@H](O)[C@H](N)[C@H]3O)[C@H](N)C[C@@H]2N)[C@H](N)C[C@@H]1O	[14C]-phenylalanine incorporation, inhibitor, (UUU)12-directed cell-free translation	Mycolicibacterium smegmatis wild-type 70S ribosomes	60 min, 37 °C	1 µM
O=C(O)/C=C/c1ccc(O)c(O)c1	DPPH radical scavenging	ethanol	30 min	40.9 µM
protein S (human)	FXa-induced clotting	human protein S-depleted plasma	37 °C, no exogenous phospholipid	0.16 µM
Cn1c[n+]([C@@H]2O[C@H](COP(=O)(O)OP(=O)([O-])OP(=O)(O)OC[C@H]3O[C@@H](n4cnc5c(=O)[nH]c(N)nc54)[C@H](O)[C@@H]3O)[C@@H](O)[C@H]2O)c2nc(N)[nH]c(=O)c21	cap-dependent translation, inhibitor	rabbit reticulocyte lysate		13.9 ± 0.6 µM
kanamycin A	phenylalanine incorporation, poly(U)-directed cell-free translation	Mycolicibacterium smegmatis wild-type 70S ribosomes	60 min, 37 °C	2.5 µM
Cn1cc(Nc2nccc(-c3ccc4c(c3)CN(C3COC3)CC[C@H]4NC(=O)c3cn(C(C)(C)C)nn3)n2)cn1	measured: CD69	CD19+ B cells, multiple sclerosis patients, whole blood	with: anti-IgD	0.151 ± 0.076 µM
O=C(/C=C\c1ccc(O)c(O)c1)Nc1ccc(S(=O)(=O)Nc2ncccn2)cc1	DPPH radical scavenging	ethanol	30 min	45.6 µM
Nc1ncnc2c1ncn2[C@@H]1O[C@H](C[C@@H](N)CC[C@H](N)C(=O)O)[C@@H](O)[C@H]1O	DNA methyltransferase activity, Flashplate	K562 nuclear extract	with: hemimethylated DNA 1 µM, [3H]SAM	51 ± 6 µM
Cc1ccnn1-c1cccc(NC(=O)CC2OC(=O)c3ccccc32)c1 (centres unmarked)	classical complement MAC deposition, ELISA	human serum 1%	saturable inhibition not reached	530 µM
CC1(C)CC(N)CC(C)(C)N1.Cc1c(C)c2c(c(C)c1O)CCC(C)(C(=O)O)O2 (centres unmarked)	DPPH radical scavenging	methanol	10 min, with: DPPH 70 µM	66 µM
O=C1O[C@H]([C@@H](O)CO)C(O)=C1O	DPPH radical scavenging	ethanol	30 min	91 µM
CC(C)CCC[C@@H](C)[C@H]1CC[C@H]2[C@@H]3CC=C4C[C@@H](O)CC[C@]4(C)[C@H]3CC[C@]12C	cap-dependent translation	rabbit reticulocyte lysate	1 h preincubation, with: capped luciferase mRNA	99 ± 20 µM
CC(C=CC1(C)C(C)CCC(=O)C1C)=CCc1c(O)c(C=O)c(C)c(Cl)c1OC(=O)c1cccnc1 (centres unmarked)	succinate-dependent oxygen uptake, inhibitor	rat liver mitochondria	with: succinate 15 mM	0.08 µM
Cc1c(CN2CCN(C(=O)[C@H](C)O)CC2)sc2c(N3CCOCC3)nc(-c3cnc(N)nc3)nc12	measured: pAkt	patients with advanced solid tumours, platelet-rich plasma	individual estimates range, PK-PD model	0.00403 to 0.0261 µg/mL
glutathione	DPPH radical scavenging		30 min	< 15 µg/mL
C/C=C(C)/C=C/C=C/[C@H](OC)[C@@H](C)[C@@H](OC)[C@@H](C)CCc1oc2c(O)c(OC)cc(OC)c2c(=O)c1C	succinate-dependent oxygen uptake, inhibitor	rat liver mitochondria	with: succinate 15 mM	0.014 µM
CC(=O)Oc1ccc(/C=C\C(=O)Nc2ccc(S(N)(=O)=O)cc2)cc1OC(C)=O	DPPH radical scavenging	ethanol	30 min	223 µM
O=C1O[C@H]([C@@H](O)CO)C(O)=C1O	nitric oxide scavenging			38.9 ± 2.5 µM
CCCCCCCCCCCCCCSC[C@H]1O[C@H](O[C@@H]2[C@@H](O)[C@H](O[C@H]3O[C@H](CN)[C@@H](O)C[C@H]3N)[C@@H](N)C[C@H]2N)[C@H](O)[C@@H](N)[C@@H]1O	luciferase reporter translation	Escherichia coli cell lysate		> 0.147 µM
CC(/C=C/[C@@]1(C)[C@H](C)CCC(=O)[C@@H]1C)=C\Cc1c(O)c(Cl)c(C)c(C=O)c1O	succinate-dependent oxygen uptake, inhibitor	rat liver mitochondria	with: succinate 15 mM	0.013 µM
C=C1[C@@H](O)C[C@H]2C(C)(C)C[C@H](Cl)C[C@]2(C)[C@H]1C[C@H](O)[C@H]1CC(=O)NC1=O	translation, inhibitor, measured: firefly luciferase reporter	Krebs-2 cell lysate		~0.5 µM

Excerpt of the above:
Substance	assay	system	conditions	IC50
Cc1c(CN2CCN(C(=O)[C@H](C)O)CC2)sc2c(N3CCOCC3)nc(-c3cnc(N)nc3)nc12	measured: pAkt	patients with advanced solid tumours, platelet-rich plasma	individual estimates range, PK-PD model	0.00403 to 0.0261 µg/mL
